Results from different studies.
Compare with care: the assays were run in different laboratories.
Organism: Influenza A virus

SMILES | observed | action | cells | strain | time | IC50
O=P(O)(OCc1ccc(-c2ccccc2)cc1)Oc1c2c(c(OP(=O)(O)OCc3ccc(-c4ccccc4)cc3)c3c1C1CC3c3cc4c(cc31)C1CC4c3ccccc31)C1CC2c2cc3c(cc21)C1CC3c2ccccc21 | viral replication |  | Caco-2 |  |  | 0.6 µM
C=CC1=C(C)c2cc3nc(cc4[nH]c(cc5[nH]c(cc1n2)c(C)c5C=C)c(C)c4CCC(=O)OCCCCCCCCCCCCCC)C(CCC(=O)O)=C3C | viral replication |  | MDCK | H3N2 |  | 13.6 µM
CC1=CCC2C34CCC(O)(OC3)C(C)(C)C4CCC2(C)C12Cc1c(cc(-c3cccnc3)oc1=O)O2 (centres unmarked) | viral replication |  |  | H1N1 |  | 6.61 µM
C=CC1=C(C)c2cc3nc(cc4[nH]c(cc5[nH]c(cc1n2)c(C)c5C=C)c(C)c4CCC(=O)OCc1ccccc1)C(CCC(=O)O)=C3C | viral replication |  | MDCK | H3N2 |  | > 29.8 µM
CC1=CC[C@@H]2[C@]34CC[C@](O)(OC3=O)C(C)(C)[C@@H]4CC[C@@]2(C)[C@]12Cc1c(cc(-c3cccnc3)oc1=O)O2 | viral replication |  |  | H1N1 |  | 7.48 µM
C[n+]1ccc(C(=O)NCc2ccccc2)cc1 | viral replication | inhibitor | HEK-293T |  | 24 h | 354 µM
COC(=O)c1c(C)[nH]c2c3c(c(O)c(CN4CCOCC4)c12)[C@H]1C[C@@H]2[C@@]4(C)CCC[C@@](C)(C(=O)OC)[C@@H]4CC[C@@]32C=C1C(C)C | viral replication |  | MDCK | A/Puerto Rico/8/34 (H1N1) |  | 3.5 µM
CCc1ccc(COP(=O)(O)Oc2c3c(c(OP(=O)(O)OCc4ccc(CC)cc4)c4c2C2CC4c4cc5c(cc42)C2CC5c4ccccc42)C2CC3c3cc4c(cc32)C2CC4c3ccccc32)cc1 | viral replication |  | Caco-2 |  |  | 3.2 µM
CC(C)c1ccc2c(c1)CC[C@H]1[C@](C)(C(=O)OCC#CCN3CCOCC3)CCC[C@]21C | viral replication |  | MDCK | A/Puerto Rico/8/34 (H1N1) |  | > 89 µM
CO[C@@]12CC[C@]3(C(=O)O1)[C@H]1CC=C(C)[C@@]4(Cc5c(cc(-c6cccnc6)oc5=O)O4)[C@]1(C)CC[C@H]3C2(C)C | viral replication |  |  | H1N1 |  | 7.24 µM
CC=CCCCCOP(=O)(O)Oc1c2c(c(OP(=O)(O)OCCCCC=CC)c3c1C1CC3c3cc4c(cc31)C1CC4c3ccccc31)C1CC2c2cc3c(cc21)C1CC3c2ccccc21 | viral replication |  | Caco-2 |  |  | 6.7 µM
C[C@H](O)CC(=O)OCCc1ccc(O)cc1 | viral replication | inhibitor |  | H1N1 WSN | 24 h | 6.4 µM
C=CC1=C(C)c2cc3nc(cc4[nH]c(cc5[nH]c(cc1n2)c(C)c5C=C)c(C)c4CCC(=O)OCc1ccc(-c2ccccc2)cc1)C(CCC(=O)O)=C3C | viral replication |  | MDCK | A/Puerto Rico/8/34 H1N1 |  | > 26.8 µM
CC(C)=CCC[C@H](C)c1ccc(C)cc1 | cytopathic effect |  | MDCK | H3N2 | 72 h | 22.1 µg/mL
CCCCCCOP(=O)(O)Oc1c2c(c(OP(=O)(O)OCCCCCC)c3c1C1CC3c3cc4c(cc31)C1CC4c3ccccc31)C1CC2c2cc3c(cc21)C1CC3c2ccccc21 | viral replication |  | Caco-2 |  |  | 113 µM
C=CC1=C(C)c2cc3nc(cc4[nH]c(cc5[nH]c(cc1n2)c(C)c5C=C)c(C)c4CCC(=O)OCCCCCCCCCC)C(CCC(=O)O)=C3C | viral replication |  | MDCK | H3N2 |  | 8.95 µM

SMILES | observed | action | cells | strain | time | IC50
CN(C)CCCC(=O)O[C@@H]1C[C@@H]2CC[C@@]1(C)C2(C)C | viral replication | inhibitor | MDCK | H1N1 PR8 |  | 97 µM
CC(C)C1=C[C@@]23CC[C@@H]4[C@](C)(CCC[C@@]4(C)C(=O)OCC#CCN4CCOCC4)[C@H]2C[C@@H]1[C@H]1C(=O)CCC(=O)[C@H]13 | viral replication |  | MDCK | A/Puerto Rico/8/34 (H1N1) |  | 12.6 µM
C=CC1=C(C)c2cc3nc(cc4[nH]c(cc5[nH]c(cc1n2)c(C)c5C=C)c(C)c4CCC(=O)OCCCCCCCCCCCCCCCCCC)C(CCC(=O)O)=C3C | viral replication |  | MDCK | H3N2 |  | > 21.9 µM
CC(C)C1=C[C@@]23CC[C@@H]4[C@](C)(CCC[C@@]4(C)C(=O)NCC#CCN4CCCNCC4)[C@H]2C[C@@H]1[C@H]1C(=O)OC(=O)[C@H]13 | viral replication |  | MDCK | A/Puerto Rico/8/34 (H1N1) |  | 69.8 µM
O=P(O)(OCCc1ccccc1)Oc1c2c(c(OP(=O)(O)OCCc3ccccc3)c3c1C1CC3c3cc4c(cc31)C1CC4c3ccccc31)C1CC2c2cc3c(cc21)C1CC3c2ccccc21 | viral replication |  | Caco-2 |  |  | 11.6 µM
CCN(CC)CC#CCOC(=O)[C@]1(C)CCC[C@@]2(C)[C@H]1CC(C=O)=C1C=C(C(C)C)CC[C@@H]12 | viral replication |  | MDCK | A/Puerto Rico/8/34 (H1N1) |  | 72.6 µM
CC12CCC(CC1=NCCO)C2(C)C (centres unmarked) | viral replication | inhibitor | MDCK | H1N1 |  | 5.1 µM
C#CCC(C)OP(=O)(O)Oc1c2c(c(OP(=O)(O)OC(C)CC#C)c3c1C1CC3c3cc4c(cc31)C1CC4c3ccccc31)C1CC2c2cc3c(cc21)C1CC3c2ccccc21 (centres unmarked) | viral replication |  | Caco-2 |  |  | 38.4 µM
C=C(C)[C@]1(O)CC[C@]2(C)[C@H](CC=C(C)[C@@]23Cc2c(cc(-c4cccnc4)oc2=O)O3)[C@@]12CCC(=O)OC2 | viral replication |  |  | H1N1 |  | 4.03 µM
CC(C)C1=C[C@@]23CC[C@@H]4[C@](C)(CCC[C@@]4(C)C(=O)OCC#CCN4CCCC4)[C@H]2C[C@@H]1[C@H]1C(=O)OC(=O)[C@H]13 | viral replication |  | MDCK | A/Puerto Rico/8/34 (H1N1) |  | 3 µM
CCN(CC)CC(=O)O[C@@H]1C[C@@H]2CC[C@@]1(C)C2(C)C | viral replication | inhibitor | MDCK | H1N1 PR8 |  | > 41 µM
CC(C)C1=CC2=CC[C@@H]3[C@](C)(CCC[C@@]3(C)C(=O)OCC#CCN3CCOCC3)[C@H]2CC1 | viral replication |  | MDCK | A/Puerto Rico/8/34 (H1N1) |  | 33 µM
Cc1ccc(COP(=O)(O)Oc2c3c(c(OP(=O)(O)OCc4ccc(C)cc4)c4c2C2CC4c4cc5c(cc42)C2CC5c4ccccc42)C2CC3c3cc4c(cc32)C2CC4c3ccccc32)cc1 | viral replication |  | Caco-2 |  |  | 2.1 µM
CC(C)C1=C[C@@]23CC[C@@H]4[C@](C)(CCC[C@@]4(C)C(=O)OCC#CCN4CCCC4)[C@H]2C[C@@H]1[C@H]1C(=O)CCC(=O)[C@H]13 | viral replication |  | MDCK | A/Puerto Rico/8/34 (H1N1) |  | 0.47 µM
C=CCCCCOP(=O)(O)Oc1c2c(c(OP(=O)(O)OCCCCC=C)c3c1C1CC3c3cc4c(cc31)C1CC4c3ccccc31)C1CC2c2cc3c(cc21)C1CC3c2ccccc21 | viral replication |  | Caco-2 |  |  | 16.7 µM
CC1=CCC[C@H](C)[C@@]12CC[C@@H](C(C)(C)O)C2 | cytopathic effect |  | MDCK | H1N1 PR/8 | 72 h | 54.2 µg/mL

For quick reference, copied from above:
SMILES | observed | action | cells | strain | time | IC50
C=CC1=C(C)c2cc3nc(cc4[nH]c(cc5[nH]c(cc1n2)c(C)c5C=C)c(C)c4CCC(=O)OCCCCCCCCCC)C(CCC(=O)O)=C3C | viral replication |  | MDCK | H3N2 |  | 8.95 µM
CN(C)CCCC(=O)O[C@@H]1C[C@@H]2CC[C@@]1(C)C2(C)C | viral replication | inhibitor | MDCK | H1N1 PR8 |  | 97 µM
CC(C)C1=C[C@@]23CC[C@@H]4[C@](C)(CCC[C@@]4(C)C(=O)OCC#CCN4CCOCC4)[C@H]2C[C@@H]1[C@H]1C(=O)CCC(=O)[C@H]13 | viral replication |  | MDCK | A/Puerto Rico/8/34 (H1N1) |  | 12.6 µM
